Experimental data pooled from the literature.
Each numbered part is a random draw from the data of one study; scales do not carry over between parts.
Chain of UniProt P62837 (whole entry, looked up): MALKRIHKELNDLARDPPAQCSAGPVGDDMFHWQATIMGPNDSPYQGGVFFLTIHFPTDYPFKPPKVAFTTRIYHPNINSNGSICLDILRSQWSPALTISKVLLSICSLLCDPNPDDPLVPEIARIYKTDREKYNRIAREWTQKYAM

Study 1 — technique: protein binding microarray; form: double-stranded DNA, one strand shown; matrix: in vitro; tested at: not given; baseline: not given; reading: higher = stronger binding
Target: Histone acetyltransferase KAT6A, both winged helices, GST fusion (KAT6A, Homo sapiens, UniProt Q92794, residues 1-181)
Setting: 8-mer, flanks averaged, mean of 2 arrays, mostly near background
Construct (chain): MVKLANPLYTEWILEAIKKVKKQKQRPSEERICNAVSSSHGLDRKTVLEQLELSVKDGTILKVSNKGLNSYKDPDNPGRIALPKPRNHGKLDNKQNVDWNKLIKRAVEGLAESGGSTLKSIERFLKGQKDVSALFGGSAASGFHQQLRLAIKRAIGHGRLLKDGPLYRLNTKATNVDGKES
Sequence | E-score
CGGCGGAG | 0.294
ATAAGCCG | 0.0881
CCCTCCCC | 0.0951
CCGCATAA | 0.151
AGACTATA | -0.0185
AATAGAGA | -0.119
AATGTCGG | 0.188
GCTGAGTA | -0.115

Study 2 — technique: protein-binding microarray; form: double-stranded DNA, one strand shown; matrix: in vitro; tested at: 250 nM; setting: 60-bp whole probe; added: salmon DNA 0.4 mg/ml; baseline: random background probes; reading: higher = stronger binding; shared flanks, not repeated: GCCTAGCAC … GTCTTGATTCGCTTGACGCTGCTG
Target: Interferon regulatory factor 5, full length, phosphomimetic (IRF5, Homo sapiens, UniProt Q13568-2, residues 1-514, K96S/S451D/S453D/S456D/S462D)
Sequence | log fluorescence [z-score]
GAAGCCAGCTCTTTCGTTACGTGCTAG | 3.98
GCTTCCTCACCTGATGCCTCGTGCTAG | -0.086
GACGGTCTCGCTTTCGGGACGTGCTAG | 3.17
GACGATCTCAGTATCGGGACGTGCTAG | 1.73
GACGGTATCGGACTGGGGAAGTGCTAG | 1.21
TGAGGTTCCCTTTTCCTTTAGTGCTAG | 0.302
TTAGGTTCCGACACTGGGTTAGTGCTA | 0.177
TTAGGTCCCCTTCTCCTTTAGTGCTAG | -0.104

Study 3 — technique: competition protein-binding microarray; form: double-stranded DNA, one strand shown; matrix: in vitro; tested at: 2 µM; added: Cbf1 competitor, 0.05 µM; reading: higher = stronger binding; shared flanks, not repeated: … GTCTTGATTCGCTTGACGCTGCTG
Target: Phosphate system positive regulatory protein PHO4, full length, GST-tagged (PHO4, Saccharomyces cerevisiae, UniProt P07270, residues 1-312)
Setting: whole 60-bp probe, lowest competitor level
Target sequence (chain): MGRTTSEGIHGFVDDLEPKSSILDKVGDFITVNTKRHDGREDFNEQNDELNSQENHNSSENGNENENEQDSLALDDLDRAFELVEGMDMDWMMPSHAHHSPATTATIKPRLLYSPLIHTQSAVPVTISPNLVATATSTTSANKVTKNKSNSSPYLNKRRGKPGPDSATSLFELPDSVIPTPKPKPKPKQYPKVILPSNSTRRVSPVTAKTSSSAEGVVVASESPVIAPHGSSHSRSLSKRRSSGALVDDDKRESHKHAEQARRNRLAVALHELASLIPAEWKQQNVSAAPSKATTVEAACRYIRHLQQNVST
Sequence | fluorescence intensity
CGGGGTTAAGTTTGGAATGTGGGTGGCTTGCAGCAG | 5480 a.u.
AAAGCGGTAATTTGCGAGGTGGGTGCAGATATCTAT | 4240 a.u.
CTTCTGTAAATTTGCAATGTGGGTGGACGCGCCCCG | 5580 a.u.
CGTCCTAGTGATTTTCACGTGCATTCCATGAGGAAG | 12600 a.u.
GAGTCATAAGCATAACATGTGGTTCCAGAAGCACTT | 11000 a.u.
AAAGCGGTAATTTGGTTTGTGGGTGCAGATATCTAT | 4210 a.u.
GGCCAAAGTGTTCGTCACAAAACAGTGGTCCTATAT | 2980 a.u.
GGCTCGCTAGGCGGCTACATGACAAAATGCCCAAGT | 3770 a.u.

Mixed results
B1: NHLRC1 RING domain (UniProt Q6VVB1); chain MREAEISLLECKVCFEKFGHRQQRRPRNLSCGHVVCLACVAALAHPRTLALECPFCRRACRGCDTSD
Sequence | target | assay | system | setting | how to read | quantity | result
B1 (NHLRC1 RING domain) | UBE2D2 UBC core domain (UniProt P62837) | yeast two-hybrid | yeast | mostly zero background | baseline: not given, higher = stronger interaction | lacZ reporter activity | 0

Repeated from above (study 2):
Sequence | log fluorescence [z-score]
GACGGTATCGGACTGGGGAAGTGCTAG | 1.21
GACGGTCTCGCTTTCGGGACGTGCTAG | 3.17
TTAGGTTCCGACACTGGGTTAGTGCTA | 0.177
